Published values from different studies.
Every numbered part comes from another study and shows a few of its results, in no order.

Block 1 — method: universal PBM; molecule type: double-stranded DNA, one strand shown; medium: in vitro; concentration: 600 nM; direction: higher = stronger binding
Target: Sal-like protein 4, full length isoform A (SALL4, Homo sapiens, UniProt Q9UJQ4, residues 1-1053)
Sequence of UniProt Q9UJQ4 (whole entry, looked up): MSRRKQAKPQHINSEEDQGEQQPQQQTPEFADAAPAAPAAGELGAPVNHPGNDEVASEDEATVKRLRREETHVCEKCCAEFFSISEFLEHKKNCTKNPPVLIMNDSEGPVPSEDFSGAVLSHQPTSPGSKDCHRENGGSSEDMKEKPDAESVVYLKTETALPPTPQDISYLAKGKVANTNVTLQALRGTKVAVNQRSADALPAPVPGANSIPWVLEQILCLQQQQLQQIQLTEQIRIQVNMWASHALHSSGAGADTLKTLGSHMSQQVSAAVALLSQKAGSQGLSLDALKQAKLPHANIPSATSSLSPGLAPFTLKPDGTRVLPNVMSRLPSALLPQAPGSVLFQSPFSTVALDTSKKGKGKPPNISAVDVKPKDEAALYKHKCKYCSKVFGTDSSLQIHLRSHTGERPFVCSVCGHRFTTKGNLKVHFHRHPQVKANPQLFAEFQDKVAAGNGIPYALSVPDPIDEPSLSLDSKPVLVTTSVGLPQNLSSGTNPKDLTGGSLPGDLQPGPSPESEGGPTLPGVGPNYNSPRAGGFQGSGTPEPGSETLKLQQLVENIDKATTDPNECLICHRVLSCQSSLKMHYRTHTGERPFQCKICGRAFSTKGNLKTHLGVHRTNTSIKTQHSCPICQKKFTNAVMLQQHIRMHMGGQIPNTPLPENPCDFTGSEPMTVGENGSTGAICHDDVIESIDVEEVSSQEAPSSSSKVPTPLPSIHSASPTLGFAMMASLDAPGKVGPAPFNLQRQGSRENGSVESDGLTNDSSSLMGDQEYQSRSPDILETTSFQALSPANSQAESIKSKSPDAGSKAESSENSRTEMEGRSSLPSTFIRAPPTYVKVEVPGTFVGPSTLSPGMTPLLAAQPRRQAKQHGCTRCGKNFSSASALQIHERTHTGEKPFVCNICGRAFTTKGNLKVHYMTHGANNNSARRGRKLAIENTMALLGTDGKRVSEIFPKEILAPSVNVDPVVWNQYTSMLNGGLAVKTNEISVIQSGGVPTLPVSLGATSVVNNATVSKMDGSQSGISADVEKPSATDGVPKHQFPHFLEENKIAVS
Notes: 8-mer, flanks averaged, mean of replicates
`ACAGGTAT` gave an E-score of 0.0676.
`CGACGGTA` has an E-score of -0.127.
`CCAGGTGA` has an E-score of -0.158.
The E-score of `CATCCCAA` is reported as 0.157.
With `AGGACCTC` the E-score was -0.101.
`ACCATTTG` has an E-score of 0.111.

Block 2 — method: RNA Bind-n-Seq; molecule type: RNA; medium: in vitro; concentration: 365 nM; baseline: no-protein control; direction: higher = stronger binding
Target: RNA binding protein fox-1 homolog 2, RRM domain, GST-SBP tag (RBFOX2, Homo sapiens, UniProt O43251-10, residues 100-194)
Notes: natural RNA segment, single round, ends assumed
Residues (chain): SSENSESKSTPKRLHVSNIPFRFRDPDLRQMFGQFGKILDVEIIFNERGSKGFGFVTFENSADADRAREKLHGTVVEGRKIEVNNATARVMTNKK
Under “RBNS enrichment (R)”, `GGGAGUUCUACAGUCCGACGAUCUUUUUUCUUCCCUUCAUAUAUCCAUUCAAACUCAAUGGAAAGUUAUUAAAUAACCAUUAGAAAAGCUCAGUAGACUUAUUUGAGAAAUUAAGCCUUGUGCAGGAUGAUGGUGGAAUUCUCGGGUGCCAA` is recorded as 0.413.
`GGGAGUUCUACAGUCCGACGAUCCAGCCUCAUCCUUUGCCUUGCUGGCUUUCUGGGCACGUCUUAAAGCUGAUGUGAAUCCAUCCAGGGCCUAGGUAGAUUGGUAAGUCAGGAAACAGCCCAUGGGGUUCAGCUGGAAUUCUCGGGUGCCAA` — result for “RBNS enrichment (R)”: 0.534.
For `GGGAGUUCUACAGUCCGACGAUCCUGCGAAGUUUCGUUGGAUUUUAUUUUAUGUCCUUCAGAGCACCCUCCCCCACCCACUAGGGUCCAGAAGAGCAAUGGAGGAAGUGACAGCUAAUGGUGCAGUUCUAAAUUGGAAUUCUCGGGUGCCAA`, “RBNS enrichment (R)” read 0.186.
Under “RBNS enrichment (R)”, `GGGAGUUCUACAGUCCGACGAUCUAACCAUUAGUACUUACUGUGCAGGGAACCAAACCAAGGUCUGAGAAAUGCGGACACCCCGAGCGAGCACCCCAAAGUGCACAAAGCUGAGUAAAAAGCUGCCCCCUUCAUGGAAUUCUCGGGUGCCAA` is recorded as 0.225.
`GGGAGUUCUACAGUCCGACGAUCAGACUCAUUCUGGAAUCUAGUGUGGGUCAAGCCAACUUCAGGGAGAGGCUGAGCCAGGGUAGGAGUCACAGGAGCAGACGAGGAUGUGGGGUGCCGUGCACAGAGCUCCAUGGAAUUCUCGGGUGCCAA` — result for “RBNS enrichment (R)”: 0.477.
`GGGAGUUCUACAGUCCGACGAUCAGUGAUUCUUGCACAUGAAUUGUCACAUAUUAUAUGUGUUUUUUAAAGAGCCUCAGUCUGACUGAUUUCAAACACUUUUUUUCUCCUGUGUAUUGCUUUUAAGAGAGCCAUGGAAUUCUCGGGUGCCAA`: “RBNS enrichment (R)” 0.64.

Block 3 — method: protein binding microarray; molecule type: double-stranded DNA, one strand shown; medium: in vitro; concentration: not given; baseline: not given; direction: higher = stronger binding
Target: Histone acetyltransferase KAT6A, both winged helices, GST fusion (KAT6A, Homo sapiens, UniProt Q92794, residues 1-181)
Notes: 8-mer, flanks averaged, mean of 2 arrays, mostly near background
Residues (chain): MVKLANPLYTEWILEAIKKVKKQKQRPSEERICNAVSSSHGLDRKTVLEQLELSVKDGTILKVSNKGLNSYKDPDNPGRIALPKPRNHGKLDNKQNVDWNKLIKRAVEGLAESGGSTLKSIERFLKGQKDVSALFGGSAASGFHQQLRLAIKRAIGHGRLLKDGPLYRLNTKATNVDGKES
For `GAGTGTGA`, the E-score was -0.21.
`GATATGGC` has an E-score of 0.052.
`TAGTCATA` has an E-score of -0.125.
The E-score of `TGCCGGAA` is reported as 0.167.

Other studies, line by line
`PhoQ, residues 284 288 289 292 302 303 AAQSYM` gave a fold induction of 1.17 (PhoP, residues 12 14 15 18 19 NHTVL (Escherichia coli, UniProt P23836); Sort-seq, measured: YFP reporter; E. coli; PhoQ-PhoP variant library, together with: 10 µM Mg2+; baseline: high Mg2+ state, higher = stronger signaling).
